Measured values from different studies.
± marks the error that the study gave. Square brackets hold non-standard residues; d marks the D form. Ends that are not written are not given here.
Sequence of UniProt Q8BZP8 (whole entry, looked up): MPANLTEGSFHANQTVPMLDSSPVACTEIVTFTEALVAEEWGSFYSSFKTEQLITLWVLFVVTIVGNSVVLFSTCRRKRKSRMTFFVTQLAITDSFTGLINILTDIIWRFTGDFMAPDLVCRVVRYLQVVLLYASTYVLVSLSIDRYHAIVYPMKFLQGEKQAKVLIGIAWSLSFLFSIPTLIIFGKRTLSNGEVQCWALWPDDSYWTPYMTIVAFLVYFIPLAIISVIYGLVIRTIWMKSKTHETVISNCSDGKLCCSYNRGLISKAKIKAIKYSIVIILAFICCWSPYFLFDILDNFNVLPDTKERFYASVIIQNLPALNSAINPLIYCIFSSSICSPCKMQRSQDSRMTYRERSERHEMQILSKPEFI
Sequence of UniProt P08913 (whole entry, looked up): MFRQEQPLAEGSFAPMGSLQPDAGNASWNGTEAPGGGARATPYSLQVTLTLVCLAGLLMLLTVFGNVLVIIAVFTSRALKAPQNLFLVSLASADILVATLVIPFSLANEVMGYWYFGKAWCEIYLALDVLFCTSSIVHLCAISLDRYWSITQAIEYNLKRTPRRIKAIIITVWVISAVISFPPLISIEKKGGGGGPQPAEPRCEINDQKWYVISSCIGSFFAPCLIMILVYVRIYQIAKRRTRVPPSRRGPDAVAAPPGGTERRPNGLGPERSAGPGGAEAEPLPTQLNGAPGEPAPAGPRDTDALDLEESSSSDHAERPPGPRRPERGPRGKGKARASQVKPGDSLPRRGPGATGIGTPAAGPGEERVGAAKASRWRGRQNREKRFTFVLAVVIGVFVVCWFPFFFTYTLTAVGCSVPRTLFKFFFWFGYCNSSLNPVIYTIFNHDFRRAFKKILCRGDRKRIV
Sequence of UniProt O14764 (whole entry, looked up): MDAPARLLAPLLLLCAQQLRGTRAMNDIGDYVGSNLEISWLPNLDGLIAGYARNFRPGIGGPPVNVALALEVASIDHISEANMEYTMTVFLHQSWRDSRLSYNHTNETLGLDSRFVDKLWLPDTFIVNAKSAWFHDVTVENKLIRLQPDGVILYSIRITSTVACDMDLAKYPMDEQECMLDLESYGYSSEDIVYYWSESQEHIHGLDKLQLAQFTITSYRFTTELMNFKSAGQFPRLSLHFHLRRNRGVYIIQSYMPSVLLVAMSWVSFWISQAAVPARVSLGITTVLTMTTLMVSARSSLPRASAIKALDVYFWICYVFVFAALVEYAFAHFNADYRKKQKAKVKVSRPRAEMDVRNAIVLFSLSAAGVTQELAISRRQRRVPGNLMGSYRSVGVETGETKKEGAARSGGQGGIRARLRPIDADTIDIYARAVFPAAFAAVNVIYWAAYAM
Sequence of UniProt P19484 (whole entry, looked up): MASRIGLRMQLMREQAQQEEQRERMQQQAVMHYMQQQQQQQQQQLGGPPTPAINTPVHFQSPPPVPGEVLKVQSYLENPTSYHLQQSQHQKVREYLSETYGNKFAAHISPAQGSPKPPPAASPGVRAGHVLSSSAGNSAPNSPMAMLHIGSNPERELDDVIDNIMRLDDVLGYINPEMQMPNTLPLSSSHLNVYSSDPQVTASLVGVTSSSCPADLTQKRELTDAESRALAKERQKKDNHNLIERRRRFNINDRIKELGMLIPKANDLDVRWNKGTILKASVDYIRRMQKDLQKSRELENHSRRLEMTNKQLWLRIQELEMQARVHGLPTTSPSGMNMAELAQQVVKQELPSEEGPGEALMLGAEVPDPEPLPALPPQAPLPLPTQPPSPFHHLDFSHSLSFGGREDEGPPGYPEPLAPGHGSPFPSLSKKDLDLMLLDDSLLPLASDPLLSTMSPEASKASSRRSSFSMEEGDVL
Sequence of UniProt P48169 (whole entry, looked up): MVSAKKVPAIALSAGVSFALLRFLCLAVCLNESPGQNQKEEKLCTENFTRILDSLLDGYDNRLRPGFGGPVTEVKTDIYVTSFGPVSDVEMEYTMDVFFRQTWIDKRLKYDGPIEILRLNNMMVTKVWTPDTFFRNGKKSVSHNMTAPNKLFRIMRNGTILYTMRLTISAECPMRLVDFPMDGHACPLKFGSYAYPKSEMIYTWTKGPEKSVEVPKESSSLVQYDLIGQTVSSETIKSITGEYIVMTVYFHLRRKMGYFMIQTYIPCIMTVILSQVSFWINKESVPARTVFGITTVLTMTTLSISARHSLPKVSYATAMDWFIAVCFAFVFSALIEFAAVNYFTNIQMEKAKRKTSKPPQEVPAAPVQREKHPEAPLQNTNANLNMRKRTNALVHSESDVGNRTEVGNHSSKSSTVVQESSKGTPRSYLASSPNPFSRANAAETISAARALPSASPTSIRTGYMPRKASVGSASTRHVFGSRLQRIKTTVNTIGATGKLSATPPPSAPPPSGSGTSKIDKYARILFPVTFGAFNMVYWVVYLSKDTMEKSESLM
Sequence of UniProt P02730 (whole entry, looked up): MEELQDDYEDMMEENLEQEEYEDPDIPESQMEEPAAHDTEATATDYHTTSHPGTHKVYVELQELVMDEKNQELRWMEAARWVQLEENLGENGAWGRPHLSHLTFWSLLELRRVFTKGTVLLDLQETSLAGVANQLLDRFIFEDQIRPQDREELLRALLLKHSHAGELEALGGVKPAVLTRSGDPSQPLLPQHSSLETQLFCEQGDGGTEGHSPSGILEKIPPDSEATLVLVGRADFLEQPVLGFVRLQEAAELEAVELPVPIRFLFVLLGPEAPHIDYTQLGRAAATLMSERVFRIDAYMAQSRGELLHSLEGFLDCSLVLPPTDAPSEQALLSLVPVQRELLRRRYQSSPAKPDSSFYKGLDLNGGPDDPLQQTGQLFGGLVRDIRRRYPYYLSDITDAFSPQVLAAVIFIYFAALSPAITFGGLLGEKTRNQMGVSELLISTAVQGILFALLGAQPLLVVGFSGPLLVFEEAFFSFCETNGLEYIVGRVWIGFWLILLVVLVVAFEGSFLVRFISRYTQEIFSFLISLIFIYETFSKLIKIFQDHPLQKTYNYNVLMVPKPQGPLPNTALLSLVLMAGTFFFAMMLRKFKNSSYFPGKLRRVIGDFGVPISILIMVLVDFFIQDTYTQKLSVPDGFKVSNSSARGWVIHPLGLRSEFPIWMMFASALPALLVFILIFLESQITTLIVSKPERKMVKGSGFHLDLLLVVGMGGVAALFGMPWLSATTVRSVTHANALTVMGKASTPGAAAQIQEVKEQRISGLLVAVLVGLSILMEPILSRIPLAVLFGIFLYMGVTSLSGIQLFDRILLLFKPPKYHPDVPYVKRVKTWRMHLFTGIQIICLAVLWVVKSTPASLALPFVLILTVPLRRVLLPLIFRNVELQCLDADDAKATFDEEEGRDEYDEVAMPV
Sequence of UniProt O88703 (whole entry, looked up): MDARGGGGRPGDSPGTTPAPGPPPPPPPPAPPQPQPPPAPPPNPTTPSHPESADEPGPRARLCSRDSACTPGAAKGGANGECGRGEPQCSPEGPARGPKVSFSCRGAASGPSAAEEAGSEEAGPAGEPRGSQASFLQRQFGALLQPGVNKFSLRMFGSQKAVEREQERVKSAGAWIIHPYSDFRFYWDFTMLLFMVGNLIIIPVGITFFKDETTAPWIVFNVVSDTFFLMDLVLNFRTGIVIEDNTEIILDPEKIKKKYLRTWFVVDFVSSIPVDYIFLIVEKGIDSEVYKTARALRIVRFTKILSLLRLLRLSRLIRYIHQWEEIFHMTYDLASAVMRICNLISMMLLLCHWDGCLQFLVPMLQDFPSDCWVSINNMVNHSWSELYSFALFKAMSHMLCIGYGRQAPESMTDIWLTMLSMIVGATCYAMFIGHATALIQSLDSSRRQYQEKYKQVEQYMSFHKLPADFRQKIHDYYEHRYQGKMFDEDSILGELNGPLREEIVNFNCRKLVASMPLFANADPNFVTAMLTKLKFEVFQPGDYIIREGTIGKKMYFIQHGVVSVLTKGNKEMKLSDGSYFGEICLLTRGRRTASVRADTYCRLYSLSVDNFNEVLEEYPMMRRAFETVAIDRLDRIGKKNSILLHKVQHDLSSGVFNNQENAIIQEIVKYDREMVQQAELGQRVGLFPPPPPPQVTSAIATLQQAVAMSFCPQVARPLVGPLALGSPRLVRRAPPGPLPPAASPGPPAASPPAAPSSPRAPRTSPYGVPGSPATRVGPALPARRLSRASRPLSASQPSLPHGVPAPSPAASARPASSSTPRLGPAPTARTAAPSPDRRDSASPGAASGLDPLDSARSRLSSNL
Sequence of UniProt P28472 (whole entry, looked up): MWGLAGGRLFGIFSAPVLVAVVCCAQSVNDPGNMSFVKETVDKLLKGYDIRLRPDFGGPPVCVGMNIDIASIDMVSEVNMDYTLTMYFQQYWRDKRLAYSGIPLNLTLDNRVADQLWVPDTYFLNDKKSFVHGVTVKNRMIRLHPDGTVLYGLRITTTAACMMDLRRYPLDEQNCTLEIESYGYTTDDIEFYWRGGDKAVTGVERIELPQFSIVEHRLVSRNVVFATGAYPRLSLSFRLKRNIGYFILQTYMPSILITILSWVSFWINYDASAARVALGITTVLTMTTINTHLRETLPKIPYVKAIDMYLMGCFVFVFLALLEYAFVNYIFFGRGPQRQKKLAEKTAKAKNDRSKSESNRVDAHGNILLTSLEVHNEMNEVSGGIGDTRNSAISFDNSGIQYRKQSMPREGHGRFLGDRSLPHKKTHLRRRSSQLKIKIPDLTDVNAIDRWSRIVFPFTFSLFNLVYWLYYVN
Sequence of UniProt P34972 (whole entry, unmodified, looked up): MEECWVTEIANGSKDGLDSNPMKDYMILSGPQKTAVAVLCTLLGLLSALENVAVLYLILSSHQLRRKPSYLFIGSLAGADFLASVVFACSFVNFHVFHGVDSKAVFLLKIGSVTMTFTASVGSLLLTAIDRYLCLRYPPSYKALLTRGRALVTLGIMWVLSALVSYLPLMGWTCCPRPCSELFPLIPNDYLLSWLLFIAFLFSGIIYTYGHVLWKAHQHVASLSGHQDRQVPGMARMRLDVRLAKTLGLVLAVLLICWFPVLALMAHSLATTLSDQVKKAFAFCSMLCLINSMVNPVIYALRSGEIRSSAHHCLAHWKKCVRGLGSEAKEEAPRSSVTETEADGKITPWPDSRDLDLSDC

Molecule = AR[pT]KQTARKSTG (H3C1 1-12; pT3; pT = C[C@@H](OP(=O)(O)O)[C@H](N)C(=O)O); tested on = BIRC5 1-142 (Homo sapiens, UniProt O15392); assay = ITC; system = peptide; conditions = pH 6.8, 37 °C; endpoint = Kd; result = 2.85 ± 0.06 µM
Molecule = melittin; assay = isothermal titration calorimetry; system = POPC/POPG LUVs 50:50%; conditions = 100 µM, pH 7.0, 50 °C; endpoint = partitioning enthalpy; result = -16.7 kcal/mol
Molecule = anthraquinone-neomycin; tested on = poly(dA)•2poly(dT) triplex; assay = thiazole orange displacement, fluorescence intercalator displacement; conditions = pH 6.8, KCl 150 mM, with: thiazole orange 1.25 µM; endpoint = AC50; result = 0.138 ± 0.02 µM
Molecule = NCc1ccc(-c2ncc(OCC3CCNCC3)nc2-c2ccc(-n3cc(CO)nn3)cc2)cc1; tested on = Genome polyprotein, NS2B-NS3 protease (ZIKV, UniProt A0A024B7W1); assay = inhibitor; system = Zika virus; endpoint = IC50; result = > 10 µM
Molecule = c1ccc(CCN2CCCCC2)cc1; tested on = serotonin receptors, rat; assay = binding; system = rat cerebral cortex; conditions = with: [3H]LSD 5 nM; endpoint = Ki; result = > 10 µM
Molecule = CNSRQTDREDELI; system = peptide, human polyclonal IgM RF WEAK; conditions = concentration not given, 5 µg/mL mAb II-481 coated, with: RF at 50% max binding concentration; endpoint = inhibition; result = 0%
Molecule = RmS-3, glycosylated (Rhipicephalus microplus); tested on = kallikrein (Sus scrofa); assay = chromogenic substrate hydrolysis, inhibitor; conditions = 1 µM; endpoint = protease inhibition; result = < 20%
Molecule = O=C(NCc1ccc(F)cc1)N1CCN2C(=O)OC(c3ccccc3)(c3ccccc3)C2C1 (stereo not drawn); tested on = Neuropeptide S receptor (Mus musculus, UniProt Q8BZP8); assay = calcium mobilization, antagonist; system = HEK293 expressing mouse NPSR; conditions = 24 min preincubation, 37 °C, with: 30 nM NPS; endpoint = Kb; result = 0.0145 µM
Molecule = RmS-6, glycosylated (Rhipicephalus microplus); tested on = PLG plasmin (Homo sapiens); assay = chromogenic substrate hydrolysis, inhibitor; conditions = 1 µM; endpoint = protease inhibition; result = 24.1%
Molecule = C[C@@]1(O)CC[C@@]2(C)[C@@H](CC[C@@H]3[C@@H]2CC[C@]2(C)[C@@H](c4cc(CO)on4)CC[C@@H]32)C1; tested on = Gamma-aminobutyric acid receptor subunit alpha-4/beta3/delta (Homo sapiens, UniProt O14764+P28472+P48169); assay = GABA current potentiation, positive modulator, two-electrode voltage clamp; system = Xenopus laevis oocytes; conditions = 30 s preincubation, with: GABA EC10; endpoint = EC50; result = 1.04 ± 0.45 µM
Molecule = CC[N+](CC)(CC)CC(=O)Nc1c(C)cccc1C; tested on = sodium channel (rat brain), batrachotoxin-modified; assay = open channel block, blocker, planar lipid bilayer, single channel; conditions = symmetrical 0.5 M NaCl, 150 mV; endpoint = Kd; result = 910 µM
Molecule = CCCCN1C(=O)C(C=CC=CC=C2C(=O)N(c3ccc(S(=O)(=O)O)cc3)N=C2C)C(=O)N(CCCC)C1=O; tested on = SLC4A1 (Homo sapiens, UniProt P02730); assay = chloride exchange, 36Cl flux, refers to: inward-facing iodide-loaded transporter; conditions = 0 °C, Dixon plot, initial binding; endpoint = Ki; result = 1.7 µM
Molecule = CC[C@@H](C(=O)[C@@H](C)[C@@H](O)[C@H](C)[C@@H]1O[C@@H]([C@@H](CC)C(=O)O)CC[C@@H]1C)[C@H]1O[C@]2(C=C[C@@H](O)[C@]3(CC[C@@](C)([C@H]4CC[C@](O)(CC)[C@H](C)O4)O3)O2)[C@H](C)C[C@@H]1C; tested on = TFEB (Homo sapiens, UniProt P19484); assay = nuclear translocation, activator, GFP-TFEB imaging; system = AML12; conditions = 2 h; scale = baseline: Torin 1; endpoint = AC50; result = 2.64 µM
Molecule = CCCCCCCCCCCCCC(=O)O[C@@H]1[C@@H](C)[C@@]2(O)[C@@H](C=C(CO)C[C@]3(O)C(=O)C(C)=C[C@@H]23)[C@H]2C(C)(C)[C@]12OC(C)=O; tested on = PKCθ rat; assay = kinase activity; conditions = 1 µM, immunoprecipitated enzyme, with: PKC substrate peptide; scale = baseline: untreated; endpoint = remaining activity; result = 235 ± 22%
Molecule = NSRQTDR; system = peptide, human polyclonal IgM RF MCC; conditions = concentration not given, 5 µg/mL mAb II-481 coated, with: RF at 50% max binding concentration; endpoint = inhibition; result = 0%
Molecule = CCCN(C/C=C/I)C1CCc2ccc(O)cc2C1 (stereo not drawn); tested on = ADRA2A (Homo sapiens, UniProt P08913); assay = G protein activation, agonist, BRET, refers to: Gαi2; system = HEK293T, transfected; conditions = Emax below 50%; endpoint = EC50; result = 0.12 ± 0.006 µM
Molecule = cGMP; tested on = Potassium/sodium hyperpolarization-activated cyclic nucleotide-gated channel 2, C-terminal region (Hcn2, Mus musculus, UniProt O88703); assay = binding, isothermal titration calorimetry; conditions = C-linker/CNBD tetramer, site 2; endpoint = Kd; result = 6.13 µM
Molecule = CCCCC/C=C\C/C=C\C/C=C\C/C=C\CCCC(=O)OC(CO)CO; tested on = CNR2 (Homo sapiens, UniProt P34972, Q63R); assay = β-arrestin 2 recruitment, agonist, BRET; system = HEK293 coexpressing GRK6; endpoint = EC50; result = 1.48 µM

A few entries again:
Molecule = CC[C@@H](C(=O)[C@@H](C)[C@@H](O)[C@H](C)[C@@H]1O[C@@H]([C@@H](CC)C(=O)O)CC[C@@H]1C)[C@H]1O[C@]2(C=C[C@@H](O)[C@]3(CC[C@@](C)([C@H]4CC[C@](O)(CC)[C@H](C)O4)O3)O2)[C@H](C)C[C@@H]1C; tested on = TFEB (Homo sapiens, UniProt P19484); assay = nuclear translocation, activator, GFP-TFEB imaging; system = AML12; conditions = 2 h; scale = baseline: Torin 1; endpoint = AC50; result = 2.64 µM
Molecule = CCCCCCCCCCCCCC(=O)O[C@@H]1[C@@H](C)[C@@]2(O)[C@@H](C=C(CO)C[C@]3(O)C(=O)C(C)=C[C@@H]23)[C@H]2C(C)(C)[C@]12OC(C)=O; tested on = PKCθ rat; assay = kinase activity; conditions = 1 µM, immunoprecipitated enzyme, with: PKC substrate peptide; scale = baseline: untreated; endpoint = remaining activity; result = 235 ± 22%
